# Measured values collected from several papers.
# Numbered parts are unrelated; each lists some results of a single study.

# Study 1
# Target: Sal-like protein 4, full length isoform A (SALL4, Homo sapiens, UniProt Q9UJQ4, residues 1-1053)
# UniProt Q9UJQ4, sequence (whole entry, looked up): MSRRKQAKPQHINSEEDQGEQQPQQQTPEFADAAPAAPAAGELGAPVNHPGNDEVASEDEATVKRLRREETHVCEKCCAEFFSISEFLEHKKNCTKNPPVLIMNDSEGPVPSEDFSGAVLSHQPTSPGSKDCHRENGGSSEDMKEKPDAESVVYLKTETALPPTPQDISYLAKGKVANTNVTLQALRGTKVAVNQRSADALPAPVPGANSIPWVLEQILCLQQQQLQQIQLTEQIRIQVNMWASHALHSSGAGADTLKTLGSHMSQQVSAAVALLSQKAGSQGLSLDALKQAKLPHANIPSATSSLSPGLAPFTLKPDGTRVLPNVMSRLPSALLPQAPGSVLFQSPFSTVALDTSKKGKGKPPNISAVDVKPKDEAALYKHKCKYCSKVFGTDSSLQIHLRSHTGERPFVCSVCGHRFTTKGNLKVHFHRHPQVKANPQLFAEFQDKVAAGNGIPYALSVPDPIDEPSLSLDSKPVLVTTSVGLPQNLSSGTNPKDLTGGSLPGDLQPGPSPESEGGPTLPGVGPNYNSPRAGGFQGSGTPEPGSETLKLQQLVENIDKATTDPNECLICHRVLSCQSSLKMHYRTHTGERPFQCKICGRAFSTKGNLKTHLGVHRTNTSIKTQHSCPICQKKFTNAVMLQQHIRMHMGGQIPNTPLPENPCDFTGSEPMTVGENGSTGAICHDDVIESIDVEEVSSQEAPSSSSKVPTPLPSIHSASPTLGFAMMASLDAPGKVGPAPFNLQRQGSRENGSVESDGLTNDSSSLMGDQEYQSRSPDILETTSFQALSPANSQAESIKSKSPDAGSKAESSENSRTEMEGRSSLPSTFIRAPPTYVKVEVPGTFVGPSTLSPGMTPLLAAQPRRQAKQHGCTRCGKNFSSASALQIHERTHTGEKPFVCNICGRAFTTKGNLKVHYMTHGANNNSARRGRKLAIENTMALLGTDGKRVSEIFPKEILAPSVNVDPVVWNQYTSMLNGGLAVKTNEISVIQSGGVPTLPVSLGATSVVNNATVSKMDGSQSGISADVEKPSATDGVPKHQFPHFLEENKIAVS
# Method: universal PBM
# Form: double-stranded DNA, one strand shown
# Sample: in vitro
# Tested at: 600 nM
# Setting: 8-mer, flanks averaged, mean of replicates
# Reading: higher = stronger binding
Sequence,E-score
GAGAGTAC,0.0273
AGCTCGCG,-0.0679
CCGTGAAA,0.00931
AACTCACA,0.107
ACGGCTGA,-0.128
CCTTCGGC,-0.349
GCTGTCAA,-0.199
TCCTATCA,0.0905

# Study 2
# Target: Interferon regulatory factor 5, full length, phosphomimetic (IRF5, Homo sapiens, UniProt Q13568-2, residues 1-514, K96S/S451D/S453D/S456D/S462D)
# Method: protein-binding microarray
# Form: double-stranded DNA, one strand shown
# Sample: in vitro
# Tested at: 250 nM
# Setting: 60-bp whole probe
# Added: salmon DNA 0.4 mg/ml
# Reference: random background probes
# Reading: higher = stronger binding
# All sequences stand within: GCCTAGCAC … GTCTTGATTCGCTTGACGCTGCTG
Sequence,log fluorescence [z-score]
TCATATTTTTTTGTAATACTGTGCTAG,1.09
GACGGTTTCCATTTCCTGACGTGCTAG,1.42
TTAGGTTTCGGGATTGGGTTAGTGCTA,6.91
GACGATTTCGGGTTTTGAGACGTGCTA,3.17
TCAGCTTTCTCTTTCACACTGTGCTAG,4.81
GGATATATATCATTTAATTAGTGCTAG,0.954
TTAGGTTCCCTTTTCCTTTCGTGCTAG,1.94
TTAGGTATCGGTCTTGGTTAGTGCTAG,6.58

# Study 3
# Target: PABPC1L2, full length, GST fusion (mouse, UniProt A0ABA7IW68)
# Method: RNAcompete
# Form: RNA
# Sample: in vitro
# Tested at: 20 nM
# Setting: 7-mer, probes averaged, single round
# Reference: mean of 7-mers
# Reading: higher = stronger binding
# Target sequence (chain): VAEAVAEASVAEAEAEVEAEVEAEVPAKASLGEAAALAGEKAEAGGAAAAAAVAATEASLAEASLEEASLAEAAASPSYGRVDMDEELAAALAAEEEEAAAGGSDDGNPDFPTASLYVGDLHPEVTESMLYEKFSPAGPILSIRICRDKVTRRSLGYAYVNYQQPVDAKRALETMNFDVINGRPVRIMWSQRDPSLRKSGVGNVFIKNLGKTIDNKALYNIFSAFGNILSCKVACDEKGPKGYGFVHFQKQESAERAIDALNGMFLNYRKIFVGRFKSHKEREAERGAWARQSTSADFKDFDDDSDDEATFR
Sequence,7-mer Z-score
CUAAGAA,0.0551
CCUUUUA,0.394
GCUUUGU,-0.383
UGUUCCC,-0.44
CAAGGUG,0.0515
AUAUUUA,0.0116
CCUUGAG,-0.32
GUAACUA,-0.146

# Study 4
# Target: HLA class I histocompatibility antigen, A alpha chain, allele A*80:01 (Homo sapiens, UniProt P04439)
# Effect on: peptide-MHC binding
# Form: peptide
# Tested at: concentration not given
Sequence,binding
LYAVTTAVL,inactive
KTNDFAPAW,inactive
PPPPLQHPI,inactive
HLKEKSSLR,inactive
NHDGIQAGV,inactive
VSEKYTDMY,inactive
RTFGQPLFF,inactive
NALEKALRW,inactive
IQAVFGFSL,inactive
FLAFFSNGV,inactive
KHDFIDNPL,inactive
IFIRTIYYH,inactive
GMHDGTVGK,inactive
SSLLWGFYL,inactive
IGKMNKHYK,inactive
TVIRFWHAM,inactive
IRKPKHLYV,inactive
QIQAGNFHW,inactive
RAIMTTWTV,inactive

# Other studies, line by line
# Tested at: 10 µM
SMILES,tested on,effect on,method,measurement,result
CNC(=O)c1cc(C(=O)NC2CC2)cn(Cc2ccccc2)c1=O,"SLC6A4 (Homo sapiens, UniProt P31645)",binding,radioligand binding,inhibition,-15.9%
CCc1ccc(OCc2ccccc2C(=O)Nc2ccc3nc(C)cc(N)c3c2)cc1,HEK-293T-ACE2-TMPRSS2,,cell count,viability,126%

# For quick reference, copied from above (study 4):
Sequence,binding
KTNDFAPAW,inactive
PPPPLQHPI,inactive
HLKEKSSLR,inactive
NHDGIQAGV,inactive
VSEKYTDMY,inactive
